# Experimental data of several laboratories.
# Every numbered part comes from another study and shows a few of its results, in no order.

# Block 1 — method: protein-binding microarray; molecule type: double-stranded DNA, one strand shown; sample: in vitro; concentration: 940 nM top; setting: 60-bp whole probe; added: salmon DNA 0.4 mg/ml; baseline: random background probes; reading: higher = stronger binding; all sequences stand within: GCCTAGCAC … GTCTTGATTCGCTTGACGCTGCTG
# Target: Interferon regulatory factor 5, full length, phosphomimetic (IRF5, Homo sapiens, UniProt Q13568-2, residues 1-514, S451D/S453D/S456D/S462D)
Sequence,fitted relative affinity
CACGGTCTCCTTATCCTGACGTGCTAG,0.547 z-score
GACGGTATCGGTTTCGGGACGTGCTAG,10.3 z-score
TCAGGACTGGGTATCGGTTAGTGCTAG,3.87 z-score
TTAGGTCTCGGTTTCGGCTAGTGCTAG,7.13 z-score
GACGAACTGGGGTTTCGACACGTGCTA,2.36 z-score

# Block 2 — method: protein binding microarray; molecule type: double-stranded DNA, one strand shown; sample: in vitro; concentration: not given; baseline: not given; reading: higher = stronger binding
# Target: Histone acetyltransferase KAT6A, winged helix 2, GST fusion (KAT6A, Homo sapiens, UniProt Q92794, residues 85-181)
# Setting: 8-mer, flanks averaged, mean of 2 arrays, mostly near background
# Target sequence (chain): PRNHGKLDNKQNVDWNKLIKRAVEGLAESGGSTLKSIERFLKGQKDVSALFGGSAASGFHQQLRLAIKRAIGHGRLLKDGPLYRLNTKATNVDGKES
Sequence,E-score
CGGGCTAG,0.0639
CGTAGCAA,0.0191
ACGAAAGA,0.00364
AATAAATT,0.0628
GACAAAGA,0.0799

# Single results of other studies
Molecule,tested on,test,system,conditions,how to read,endpoint,result
"SRSF1 (Homo sapiens, UniProt Q07955)","RNPS1 (Homo sapiens, UniProt Q15287)",cross-linking MS,cell fractions,added: DSSO,,cross-linked residues,T178 to K188
"PhoQ, residues 284 288 289 292 302 303 SACGEM","PhoP, residues 12 14 15 18 19 NQAHL (Escherichia coli, UniProt P23836)","Sort-seq, item: YFP reporter",E. coli,"PhoQ-PhoP variant library, added: 10 µM Mg2+","baseline: high Mg2+ state, higher = stronger signaling",fold induction,1.19

# A few entries again (block 2):
Sequence,E-score
GACAAAGA,0.0799
